Published values of several laboratories.
Numbered parts are unrelated; each lists some results of a single study. Values joined by “and” are separate records of one study, mostly repeats; a detail may differ.
Sequence of UniProt P53667 (whole entry, looked up): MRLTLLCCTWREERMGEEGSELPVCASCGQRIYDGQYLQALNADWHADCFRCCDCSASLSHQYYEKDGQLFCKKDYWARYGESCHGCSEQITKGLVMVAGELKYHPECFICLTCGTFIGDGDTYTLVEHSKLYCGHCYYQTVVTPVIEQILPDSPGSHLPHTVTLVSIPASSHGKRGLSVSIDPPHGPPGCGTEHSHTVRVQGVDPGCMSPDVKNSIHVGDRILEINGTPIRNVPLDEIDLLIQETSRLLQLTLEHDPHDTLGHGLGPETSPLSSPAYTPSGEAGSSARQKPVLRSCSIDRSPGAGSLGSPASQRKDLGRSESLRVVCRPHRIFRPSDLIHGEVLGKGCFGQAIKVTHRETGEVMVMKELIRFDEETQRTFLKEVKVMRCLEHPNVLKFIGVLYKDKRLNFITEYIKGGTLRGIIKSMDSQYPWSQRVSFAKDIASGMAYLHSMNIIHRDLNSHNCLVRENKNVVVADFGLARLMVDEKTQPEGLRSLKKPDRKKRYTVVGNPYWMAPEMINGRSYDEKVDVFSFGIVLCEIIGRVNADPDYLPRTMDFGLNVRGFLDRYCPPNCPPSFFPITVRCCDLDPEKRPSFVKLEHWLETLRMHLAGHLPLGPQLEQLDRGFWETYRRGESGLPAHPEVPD
Sequence of UniProt Q08881 (whole entry, looked up): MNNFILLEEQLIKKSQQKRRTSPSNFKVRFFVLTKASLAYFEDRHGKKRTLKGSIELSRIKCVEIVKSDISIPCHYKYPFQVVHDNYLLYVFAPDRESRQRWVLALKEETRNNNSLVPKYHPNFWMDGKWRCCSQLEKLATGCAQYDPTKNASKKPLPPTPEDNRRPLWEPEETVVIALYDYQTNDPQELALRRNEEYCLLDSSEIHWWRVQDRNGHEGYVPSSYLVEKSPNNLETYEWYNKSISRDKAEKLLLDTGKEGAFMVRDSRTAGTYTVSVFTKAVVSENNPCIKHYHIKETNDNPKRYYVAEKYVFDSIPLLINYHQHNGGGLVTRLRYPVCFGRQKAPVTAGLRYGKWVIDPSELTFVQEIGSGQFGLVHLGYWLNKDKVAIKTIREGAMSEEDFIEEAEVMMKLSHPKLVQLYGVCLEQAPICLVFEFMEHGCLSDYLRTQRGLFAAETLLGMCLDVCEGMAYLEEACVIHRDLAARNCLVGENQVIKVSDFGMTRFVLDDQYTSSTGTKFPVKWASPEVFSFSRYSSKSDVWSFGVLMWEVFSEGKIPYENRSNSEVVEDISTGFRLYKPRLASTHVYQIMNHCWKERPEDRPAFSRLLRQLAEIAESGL
Sequence of UniProt Q9UBE8 (whole entry, looked up): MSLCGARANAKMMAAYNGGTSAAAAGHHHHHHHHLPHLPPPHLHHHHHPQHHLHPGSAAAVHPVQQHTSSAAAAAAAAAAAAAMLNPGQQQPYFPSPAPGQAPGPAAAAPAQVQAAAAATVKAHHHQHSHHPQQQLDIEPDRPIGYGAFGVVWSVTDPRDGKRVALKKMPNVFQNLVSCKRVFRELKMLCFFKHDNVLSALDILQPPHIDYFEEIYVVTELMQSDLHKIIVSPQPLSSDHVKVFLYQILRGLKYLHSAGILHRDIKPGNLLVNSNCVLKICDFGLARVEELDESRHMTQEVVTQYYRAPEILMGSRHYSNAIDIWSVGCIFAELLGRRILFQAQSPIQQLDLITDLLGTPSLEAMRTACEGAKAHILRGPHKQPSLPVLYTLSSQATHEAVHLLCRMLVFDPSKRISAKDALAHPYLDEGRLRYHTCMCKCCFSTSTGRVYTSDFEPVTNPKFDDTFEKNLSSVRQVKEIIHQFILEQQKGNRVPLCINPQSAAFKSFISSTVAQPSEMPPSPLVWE

Series 1 — read-out: enzyme activity; action: inhibitor; concentration: 77 µM; relative to: untreated
Target: DNA polymerase theta, ATPase domain (POLQ, Homo sapiens, UniProt O75417)
Sequence of UniProt O75417 (whole entry, unmodified, looked up): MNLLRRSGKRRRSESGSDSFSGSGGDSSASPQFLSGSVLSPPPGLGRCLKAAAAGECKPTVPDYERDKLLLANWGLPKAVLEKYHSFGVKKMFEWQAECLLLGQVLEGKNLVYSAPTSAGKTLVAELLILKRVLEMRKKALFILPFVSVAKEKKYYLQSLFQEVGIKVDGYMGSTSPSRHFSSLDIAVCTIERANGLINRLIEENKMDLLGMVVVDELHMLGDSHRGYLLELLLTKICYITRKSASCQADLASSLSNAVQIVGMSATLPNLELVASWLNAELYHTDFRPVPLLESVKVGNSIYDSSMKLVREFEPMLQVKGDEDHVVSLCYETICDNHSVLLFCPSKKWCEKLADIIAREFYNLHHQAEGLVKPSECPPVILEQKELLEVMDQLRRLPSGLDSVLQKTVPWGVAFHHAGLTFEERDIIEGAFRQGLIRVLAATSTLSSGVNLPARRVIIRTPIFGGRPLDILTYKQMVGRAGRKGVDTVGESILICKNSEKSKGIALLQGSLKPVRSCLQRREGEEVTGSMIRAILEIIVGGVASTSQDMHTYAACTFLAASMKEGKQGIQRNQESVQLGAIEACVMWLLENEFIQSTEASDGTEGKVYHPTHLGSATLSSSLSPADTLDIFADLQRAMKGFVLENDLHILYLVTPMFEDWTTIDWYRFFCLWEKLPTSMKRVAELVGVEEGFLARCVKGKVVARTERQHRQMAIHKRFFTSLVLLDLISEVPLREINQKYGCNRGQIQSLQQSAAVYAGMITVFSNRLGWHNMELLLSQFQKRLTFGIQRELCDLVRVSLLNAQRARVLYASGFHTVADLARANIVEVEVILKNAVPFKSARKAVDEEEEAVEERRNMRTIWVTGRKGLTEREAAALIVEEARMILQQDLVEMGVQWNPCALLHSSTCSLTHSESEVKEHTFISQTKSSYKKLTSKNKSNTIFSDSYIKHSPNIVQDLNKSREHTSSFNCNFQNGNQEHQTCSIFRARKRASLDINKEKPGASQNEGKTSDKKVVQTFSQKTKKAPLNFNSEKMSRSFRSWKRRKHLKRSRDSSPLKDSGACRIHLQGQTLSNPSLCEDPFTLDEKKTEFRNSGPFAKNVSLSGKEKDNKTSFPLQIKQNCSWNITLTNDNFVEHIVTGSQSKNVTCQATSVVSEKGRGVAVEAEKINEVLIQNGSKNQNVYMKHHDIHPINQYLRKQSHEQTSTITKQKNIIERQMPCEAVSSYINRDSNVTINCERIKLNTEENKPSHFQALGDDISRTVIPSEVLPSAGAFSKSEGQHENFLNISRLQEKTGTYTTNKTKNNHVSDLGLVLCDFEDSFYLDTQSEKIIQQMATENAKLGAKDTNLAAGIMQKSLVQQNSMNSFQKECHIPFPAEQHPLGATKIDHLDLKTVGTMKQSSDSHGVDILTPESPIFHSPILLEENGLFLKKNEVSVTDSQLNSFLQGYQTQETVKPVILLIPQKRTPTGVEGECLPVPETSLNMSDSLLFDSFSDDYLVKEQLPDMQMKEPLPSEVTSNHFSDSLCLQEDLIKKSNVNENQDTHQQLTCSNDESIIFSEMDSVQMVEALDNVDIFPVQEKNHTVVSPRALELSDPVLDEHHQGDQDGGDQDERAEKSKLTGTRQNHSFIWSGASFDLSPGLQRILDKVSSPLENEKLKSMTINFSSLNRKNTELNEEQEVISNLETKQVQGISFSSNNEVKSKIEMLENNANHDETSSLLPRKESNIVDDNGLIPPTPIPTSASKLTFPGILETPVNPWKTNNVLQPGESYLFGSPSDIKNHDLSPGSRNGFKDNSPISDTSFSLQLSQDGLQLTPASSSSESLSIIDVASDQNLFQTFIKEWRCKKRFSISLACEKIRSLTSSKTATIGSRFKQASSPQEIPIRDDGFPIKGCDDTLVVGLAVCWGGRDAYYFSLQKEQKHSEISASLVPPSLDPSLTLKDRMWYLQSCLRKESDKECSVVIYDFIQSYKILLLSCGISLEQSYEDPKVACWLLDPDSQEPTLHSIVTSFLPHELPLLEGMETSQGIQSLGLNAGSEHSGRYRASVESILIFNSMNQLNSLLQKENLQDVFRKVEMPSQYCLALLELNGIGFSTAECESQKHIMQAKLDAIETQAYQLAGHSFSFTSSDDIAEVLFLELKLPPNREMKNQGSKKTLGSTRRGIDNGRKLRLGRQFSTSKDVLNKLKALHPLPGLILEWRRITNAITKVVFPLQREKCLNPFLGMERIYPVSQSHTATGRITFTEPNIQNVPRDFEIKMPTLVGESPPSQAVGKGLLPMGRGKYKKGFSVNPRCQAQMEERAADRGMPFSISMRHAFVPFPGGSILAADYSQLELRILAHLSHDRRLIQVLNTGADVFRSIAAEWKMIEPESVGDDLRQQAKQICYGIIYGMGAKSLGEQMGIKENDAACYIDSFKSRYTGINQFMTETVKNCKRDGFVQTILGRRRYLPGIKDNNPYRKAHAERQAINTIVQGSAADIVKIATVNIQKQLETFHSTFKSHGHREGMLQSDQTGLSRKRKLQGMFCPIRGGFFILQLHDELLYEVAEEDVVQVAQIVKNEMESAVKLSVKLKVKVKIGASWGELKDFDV
Compound	remaining activity
Cc1cc(C2CCCCC2)n(O)c(=O)c1	101% and 100%
COc1cc(NS(C)(=O)=O)ccc1Nc1c2ccccc2nc2ccccc12	91.4%
CCCCc1cc2ccccc2c(OCCN(C)C)n1	101%
CC(C)(O)CC[C@@H](O)[C@](C)(O)[C@H]1CC[C@@]2(O)C3=CC(=O)[C@@H]4C[C@@H](O)[C@@H](O)C[C@]4(C)[C@H]3CC[C@]12C	103%
N#CC(C#N)=C(N)/C(C#N)=C/c1ccc(O)cc1	106%
OCCOc1ccc(/C(=C(/CCCl)c2ccccc2)c2ccccc2)cc1	101%
NCCS(=O)(=O)O	108%
Cc1ccnc(NS(=O)(=O)c2ccc(N)cc2)n1	97.3% and 102%
COc1ccccc1OCC(O)COC(N)=O (centres unmarked)	89.4% and 98.7%
CN1CCN(c2nc(C3=C(c4c[nH]c5ccccc45)C(=O)NC3=O)c3ccccc3n2)CC1	99.3%
CC1COc2c(N3CCN(C)CC3)c(F)cc3c(=O)c(C(=O)O)cn1c23 (racemic)	99.8%
CC(C)(C)c1cc(/C=C(\C#N)C(N)=S)cc(C(C)(C)C)c1O	99.8%

Series 2 — read-out: enzyme activity; action: inhibitor; concentration: 0.5 µM; relative to: control
SMILES: CN([C@@H](Cc1ccc(OS(=O)(=O)c2cccc3cnccc23)cc1)C(=O)N1CCN(c2ccccc2)CC1)S(=O)(=O)c1cccc2cnccc12
target	remaining activity [%]
AKT1 (Homo sapiens, UniProt P31749)	102
ITK (Homo sapiens, UniProt Q08881)	99.4
LIM domain kinase 1 (LIMK1, Homo sapiens, UniProt P53667)	104
PKN1 (Homo sapiens, UniProt Q16512)	105
HIPK1 (Homo sapiens, UniProt Q86Z02)	110
SRC (Homo sapiens, UniProt P12931)	91.3
NLK (Homo sapiens, UniProt Q9UBE8)	106
Cyclin-dependent kinase 3, with cyclin E (CDK3, Homo sapiens, UniProt Q00526)	101
MARK3 (Homo sapiens, UniProt P27448)	93.7
STK25 (Homo sapiens, UniProt O00506)	98.8

Series 3 — read-out: enzyme activity; action: inhibitor; concentration: 10 µM
Target: Calcium/calmodulin-dependent protein kinase type II subunit alpha (CAMK2A, Homo sapiens, UniProt Q9UQM7)
Sequence of UniProt Q9UQM7 (whole entry, looked up): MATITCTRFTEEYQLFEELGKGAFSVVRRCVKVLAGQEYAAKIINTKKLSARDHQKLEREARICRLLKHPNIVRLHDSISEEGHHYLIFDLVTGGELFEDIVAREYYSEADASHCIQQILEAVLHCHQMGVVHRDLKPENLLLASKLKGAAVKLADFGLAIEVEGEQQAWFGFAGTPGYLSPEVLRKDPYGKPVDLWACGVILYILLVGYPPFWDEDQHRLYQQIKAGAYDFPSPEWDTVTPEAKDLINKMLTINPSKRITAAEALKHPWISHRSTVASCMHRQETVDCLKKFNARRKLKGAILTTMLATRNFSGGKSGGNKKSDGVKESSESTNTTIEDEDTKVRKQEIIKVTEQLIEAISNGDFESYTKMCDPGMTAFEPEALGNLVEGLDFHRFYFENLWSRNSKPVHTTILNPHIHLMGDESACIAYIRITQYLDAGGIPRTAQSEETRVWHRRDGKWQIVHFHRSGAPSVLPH
SMILES	inhibition
Cc1ccc(Nc2c(F)cccc2Cl)c(CC(=O)O)c1	-2%
C[C@H]1[C@H](C)CC[C@]2(C(=O)O[C@@H]3O[C@H](CO[C@@H]4O[C@H](CO)[C@@H](O[C@@H]5O[C@@H](C)[C@H](O)[C@@H](O)[C@H]5O)[C@H](O)[C@H]4O)[C@@H](O)[C@H](O)[C@H]3O)CC[C@]3(C)C(=CC[C@@H]4[C@@]5(C)C[C@@H](O)[C@H](O)[C@@](C)(CO)[C@@H]5CC[C@]43C)[C@H]12	-12%
OCCOCCN1CCN(C(c2ccccc2)c2ccccc2)CC1	-8%
CC(=O)O[C@H]1Cc2c(cc3oc(C)cc(=O)c3c2O)OC1(C)C	-26%
OC[C@H]1O[C@H](OC[C@H]2O[C@H](O[C@H]3[C@H](O)[C@@H](O)[C@@H](O)O[C@@H]3CO)[C@H](O)[C@@H](O)[C@@H]2O[C@H]2O[C@H](CO)[C@@H](O)[C@H](O)[C@H]2O)[C@H](O)[C@@H](O)[C@@H]1O	-0.51% and 0.05%
COc1cc2oc(=O)ccc2cc1CC=C(C)C	-30%
CO/N=C(\C(=O)N[C@@H]1C(=O)N2C(C(=O)O)=C(Cn3ccc(=N)n3CCO)CS[C@H]12)c1csc(N)n1	-15%
CCCCOc1ccc(C(=O)CCN2CCCCC2)cc1	1%
CC(C)C[C@H](NC(=O)[C@@H](COC(C)(C)C)NC(=O)[C@H](Cc1ccc(O)cc1)NC(=O)[C@H](CO)NC(=O)[C@H](Cc1c[nH]c2ccccc12)NC(=O)[C@H](Cc1cnc[nH]1)NC(=O)[C@@H]1CCC(=O)N1)C(=O)N[C@@H](CCCN=C(N)N)C(=O)N1CCC[C@H]1C(=O)NNC(N)=O	-13%
N[C@@H](CSCCCO)C(=O)O	-12%
CCCCCC(=O)CC(=O)NC1CCOC1=O (racemic)	-15%

Single results of other studies — read-out: binding; technique: competition with immobilised ligand
SMILES	target	Kd
Cc1cc(NC(=O)c2cccc(S(F)(F)(F)(F)F)c2)cc(-n2ccn3nc(-c4cccnc4)cc23)c1	TGFBR2 (Homo sapiens, UniProt P37173)	54 nM
O=c1nc(-c2ccccn2)sc2ccccc12	CDK8 (Homo sapiens, UniProt P49336)	> 10000 nM

For quick reference, copied from above (series 3):
SMILES	inhibition
OC[C@H]1O[C@H](OC[C@H]2O[C@H](O[C@H]3[C@H](O)[C@@H](O)[C@@H](O)O[C@@H]3CO)[C@H](O)[C@@H](O)[C@@H]2O[C@H]2O[C@H](CO)[C@@H](O)[C@H](O)[C@H]2O)[C@H](O)[C@@H](O)[C@@H]1O	-0.51% and 0.05%
CC(=O)O[C@H]1Cc2c(cc3oc(C)cc(=O)c3c2O)OC1(C)C	-26%
C[C@H]1[C@H](C)CC[C@]2(C(=O)O[C@@H]3O[C@H](CO[C@@H]4O[C@H](CO)[C@@H](O[C@@H]5O[C@@H](C)[C@H](O)[C@@H](O)[C@H]5O)[C@H](O)[C@H]4O)[C@@H](O)[C@H](O)[C@H]3O)CC[C@]3(C)C(=CC[C@@H]4[C@@]5(C)C[C@@H](O)[C@H](O)[C@@](C)(CO)[C@@H]5CC[C@]43C)[C@H]12	-12%
CCCCOc1ccc(C(=O)CCN2CCCCC2)cc1	1%
CCCCCC(=O)CC(=O)NC1CCOC1=O (racemic)	-15%
